Measurements of several laboratories.
Every numbered part comes from another study and shows a few of its results, in no order. Substitutions count along the parent as printed.

Block 1
Target: Prothrombin, mature alpha-thrombin (F2, Homo sapiens, UniProt P00734)
Method: aptamer microarray, sandwich
Molecule type: DNA with 2'F-ANA
Matrix: in vitro
Tested at: 200 nM
Notes: whole 15-mer aptamer, many near background
Added: Cy3 exosite-II aptamer, 400 nM
Direction: higher = stronger binding
Oligonucleotide: GGTTGGTGTGGTTGG
Modification	mean fluorescence intensity [a.u.]
2'F-ANA at 2 8 9 11 13 14	123
2'F-ANA at 1 6 7 8 9 15	199
2'F-ANA at 1 2 4 7 8 11 13 14 15	56.2
2'F-ANA at 3 4 5 7 8 10 11 12 13 15	58.7
2'F-ANA at 2 3 4 7 9 10 11 15	255
2'F-ANA at 1 2 3 4 8 9	214
2'F-ANA at 1 3 7 9 14 15	84.3
2'F-ANA at 2 3 5 7 8 9 11 15	94.8
2'F-ANA at 6 8 9 10 11	137
2'F-ANA at 1 3 5 6 7 10 13 14	48.6
2'F-ANA at 1 3 5 6 7 8 10 13 15	52.7
2'F-ANA at 1 2 7 8 9 11 12 14 15	83.3
2'F-ANA at 2 6 8 13 15	246
2'F-ANA at 2 5 10 11 14 15	56
2'F-ANA at 1 2 6 7 9 10 12 13	95
2'F-ANA at 3 5 6 9	125
2'F-ANA at 1 2 8 9 10 11 12 13	59.3
2'F-ANA at 4 5 7 8	101
2'F-ANA at 3 4 11 12 13 14 15	371
2'F-ANA at 1 3 4 5 8 9 10 12 15	60.7

Block 2
Target: CCNA2, cyclin fold, Cln2 fusion (human)
Method: yeast growth competition, sequencing
Matrix: yeast
Notes: strong parent motif
Baseline: not given
Direction: higher = stronger binding
Parent: SCAPER docking peptide (human); SNARRSLNFGGST; partner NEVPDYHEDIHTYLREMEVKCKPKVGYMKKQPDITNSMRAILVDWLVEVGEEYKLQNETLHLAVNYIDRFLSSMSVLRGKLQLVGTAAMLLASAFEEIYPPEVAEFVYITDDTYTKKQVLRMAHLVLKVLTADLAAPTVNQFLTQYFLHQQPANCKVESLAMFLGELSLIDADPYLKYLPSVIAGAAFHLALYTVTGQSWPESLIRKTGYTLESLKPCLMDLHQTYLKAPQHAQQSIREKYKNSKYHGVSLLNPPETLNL
Variant	normalised enrichment score
SNARRSLNKGGST [F9K]	0.269
SNARRSLNFQGST [G10Q]	5.73
SNARRSLNFGGSN [T13N]	7.02
SNARRLLNFGGST [S6L]	4.74
SNAFRSLNFGGST [R4F]	2.27
GNARRSLNFGGST [S1G]	5.93
SNARRSLNFLGST [G10L]	4.96
SNARCSLNFGGST [R5C]	2.83
SNARRSENFGGST [L7E]	-0.0354
SNARRSLNFGGLT [S12L]	6.66
SYARRSLNFGGST [N2Y]	5.11
SNAQRSLNFGGST [R4Q]	2.45
SNARRSLNFGGSD [T13D]	6.92
SNARRSLNFGPST [G11P]	6.08
SSARRSLNFGGST [N2S]	6.61
SNARRYLNFGGST [S6Y]	5.3
SNARRSLNLGGST [F9L]	2.71
SNTRRSLNFGGST [A3T]	5.25
SNARRSLIFGGST [N8I]	4.8
SNARRSTNFGGST [L7T]	0.807
SNARRSLNIGGST [F9I]	1.15
YNARRSLNFGGST [S1Y]	5.77
SNKRRSLNFGGST [A3K]	0.996

Block 3
Target: RNA binding protein fox-1 homolog 2, RRM domain, GST-SBP tag (RBFOX2, Homo sapiens, UniProt O43251-10, residues 100-194)
Method: RNA Bind-n-Seq
Molecule type: RNA
Matrix: in vitro
Tested at: 365 nM
Notes: natural RNA segment, single round, ends assumed
Baseline: no-protein control
Direction: higher = stronger binding
Residues (chain): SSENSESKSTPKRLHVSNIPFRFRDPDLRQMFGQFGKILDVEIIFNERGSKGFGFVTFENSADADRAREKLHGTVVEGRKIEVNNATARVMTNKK
Oligonucleotide	RBNS enrichment (R)
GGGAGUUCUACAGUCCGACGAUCUGUUGUGGUAGGCAGUCCUGUGCAUUUUAGAAUGUUUGGCAUUAUCUCUGGCCUCCCCCACAAGAUGCCAGUAGCAAUCUUCUUCCCGAAGCUGUGACAAUCAGAAAUGUUGGAAUUCUCGGGUGCCAA	0.47
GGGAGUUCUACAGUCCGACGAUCAUAAUGAUAAUUUAUUAGUCUUUCUGUUAUUUAAAGAAUAAAAACAUGCUUAUAAAAGACUUUUAAUGAAAUGUUGCCUUUUUAAAAUAAUUAUACUUGCACAUGAAAAUUGGAAUUCUCGGGUGCCAA	2.07
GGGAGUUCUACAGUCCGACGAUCCCCCUCCCAGAUGUUGGACCAACACCCCUCCCUGCCACCAGGCACUGCCUGGAGGGCAGGGAGUGGGAGCCAAUGAACAGGCAUGCAAGUGAGAGCUUCCUGAGCUUUCUUGGAAUUCUCGGGUGCCAA	0.805
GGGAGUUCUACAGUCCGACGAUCACCAACCCACCCUGUAGAUUGUCAGCUUUUUGUUUGAGAGAUGCCUGGUCUCACAGUUACAUGUAUCAGAGUGUGUGUAAGUUGUCUGUGUUAGAAAGGUUGGGGUGGGGUGGAAUUCUCGGGUGCCAA	1.16
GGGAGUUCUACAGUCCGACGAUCAGGUGAAUCUCUGGGUUAGGACCAGUAUGGUUUGCAUAGCAAGUUCCAGAGUACACAGUGAAACACUUGUCUUUUUUAAAAAACAAAAGCUAGCUACGAAUUUUUAAAGAUGGAAUUCUCGGGUGCCAA	0.886
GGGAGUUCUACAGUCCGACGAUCACAGAGUUCAUGAAGCCCCAAACAAUUUUUAUUUUUGUAAAACAAUUGUAUGUUUAAUCUGUUUCUGAAAUCAUUUUGCAAUAUAUGGAAAUAGAGUAGCAGUUGAUAUUUGGAAUUCUCGGGUGCCAA	0.691
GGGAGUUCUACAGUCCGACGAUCAGAAAUGGCCCGUGAGACACAUAGCAGUAUUCCAUCGGCUUGGGUUGGUUCCAGUGUCAGAAGCAAGCACAGUUAUUGCUGUGUCUUCAGCUCACAGAGCCGCGUCCCUCUGGAAUUCUCGGGUGCCAA	0.207
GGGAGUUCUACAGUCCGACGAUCCUUAUUUUCUCUUGGAACAUAUCUGAAAACCUUCCCCACAAAUAACUUGUCACACCUUUUGUUUCAUUCUGAGUCUUUAGUUUUAGUCAUGGGCUUUCUUCACCUGCUCUUGGAAUUCUCGGGUGCCAA	0.821
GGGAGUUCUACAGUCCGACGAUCCCAGCACGGUCCCUCUUGGAAUUGGAUUCGCCAUUUUAUUUUUCUUGCUGCUAAAUCACCGAGCCCGGAAGAUUAGAGAGUUUUAUUUCUGGGAUUCCUGUAGACACACCUGGAAUUCUCGGGUGCCAA	0.563
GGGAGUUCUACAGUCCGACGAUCAUAACCGAGUUUGCUAAAUUGAGAGGGGCUAUUGGGCCCUAGAGGACACUAGGAGACUGGUUAGGACAAAAAGACCUUCUCCCUAGCCCUUCUACCCCACCUGACCUCUGUGGAAUUCUCGGGUGCCAA	0.648
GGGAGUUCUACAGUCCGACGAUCGGUGUGGCAGCUGAGGAAUUGGGUUUCGGGGAGAGUGACUUUUUAAAAAGGACUUAAUUUCUACUACUGCACUAUCUGUUGUGAGAUAAUUAAACAUGCUAUUUAAUUGUUGGAAUUCUCGGGUGCCAA	0.769
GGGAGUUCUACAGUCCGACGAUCCCAUCCUCACCAUCGCCUUCCCUUUUCUCCUGCACCCCUGUAGUCUACCUCUACAGUCUCCAUGACCCCCAGCCUCUUAGCCCCUGCACCUGUCGUUUAACCCUGUCAUGUGGAAUUCUCGGGUGCCAA	1.91

Block 4
Target: Histone acetyltransferase KAT6A, winged helix 2, GST fusion (KAT6A, Homo sapiens, UniProt Q92794, residues 85-181)
Method: protein binding microarray
Molecule type: double-stranded DNA, one strand shown
Matrix: in vitro
Tested at: not given
Notes: 8-mer, flanks averaged, mean of 2 arrays, mostly near background
Baseline: not given
Direction: higher = stronger binding
Target sequence (chain): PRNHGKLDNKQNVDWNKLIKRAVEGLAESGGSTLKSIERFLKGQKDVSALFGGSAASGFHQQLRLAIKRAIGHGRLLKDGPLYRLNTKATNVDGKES
Oligonucleotide	E-score
AAGCTGGA	-0.0608
ACGACTCA	-0.148
AACATAAT	-0.188
AGGCGCAT	0.0924
GAATCGCA	-0.055
GTCCACTA	-0.132
GCTGTACA	-0.0672
ATAGGCGG	0.0259
CTCCCTGA	-0.0695
AGGTCACC	0.101
GGCGTTAA	-0.167
CTACAAAC	-0.216
ATAAGCAG	0.0762
AGGAGCAC	0.0471
TCACGCAA	0.0452
AAGGCATG	-0.0227
AGGGCTGC	0.0214
ATATGGAA	-0.0429
GGTCTAGA	-0.234
TACCATGA	-0.147
AACACGTC	-0.197
AAACGTGT	-0.227
AACCGGCC	0.236
GCAGACGA	0.0708
AAACAAAT	0.0699

Repeated from above (block 4):
Oligonucleotide	E-score
AGGCGCAT	0.0924
GAATCGCA	-0.055
GTCCACTA	-0.132
GCTGTACA	-0.0672
